Results of several laboratories.

species	medium	route	dose	notes	Vd	SMILES
CD-1 mouse	plasma	intravenous	1 mg/kg	–	4.67 L/kg	Fc1cncc(-c2ccc3[nH]c4ncnc(N[C@H]5CC[C@H](N6CCOCC6)CC5)c4c3c2)c1
male CD-1 mouse	blood	intravenous	1 mg/kg	–	2.1 L/kg	OCC1OC(n2cnc3c(NCc4ccc(Br)s4)ncnc32)C(O)C1O (stereo not drawn)
C57BL/6 mouse	plasma	intraperitoneal	10 mg/kg	single dose	3.84 L/kg	Cc1cc(NCC(=O)C(C)(C)C)c2nc(N3CCOC[C@H]3C)cc(=O)n2c1
mouse	plasma	intraperitoneal	100 mg/kg	–	959 mL	COc1cc(OCCN2CCOCC2)cnc1-c1nc2cc(OC(F)(F)F)ccc2[nH]1
male C57BL/6 mouse	plasma	intravenous	5 mg/kg	single dose	0.35 L/kg	Cc1ncsc1-c1ccc(CNC(=O)[C@@H]2C[C@@H](O)CN2C(=O)[C@@H](NC(=O)COCC(C)(COCCOCCOCCNC(=O)C[C@@H]2N=C(c3ccc(Cl)cc3)c3c(sc(C)c3C)-n3c(C)nnc32)COCCOCCOCCNC(=O)C[C@@H]2N=C(c3ccc(Cl)cc3)c3c(sc(C)c3C)-n3c(C)nnc32)C(C)(C)C)cc1
female CD-1 mouse	plasma	intravenous	5 mg/kg	–	2.4 L/kg	COC1C=COC2(C)Oc3c(C)c(O)c4c(c3C2=O)C2=NC3(CCN(CC(C)C)CC3)NC2=C(NC(=O)C(C)=CC=CC(C)C(O)C(C)C(O)C(C)C(OC(=O)c2cncnc2)C1C)C4=O (stereo not drawn)
mouse	plasma	intravenous	2 mg/kg	–	7.1 L/kg	CC(C)(C)c1cnc(CSc2cnc(NC(=O)C3CCN(C(=O)CCCCCCCN4Cc5cc6c(cc5C4)C(=O)N(C4CCC(=O)NC4=O)C6=O)CC3)s2)o1 (stereo not drawn)
male CD-1 mouse	plasma	intravenous	1 mg/kg	single dose	1.59 L/kg	CC[C@H](C)[C@H](NC(=O)[C@H](Cc1ccccc1)NC(=O)[C@H](CCC(=O)O)NC(=O)[C@H](CCCCN)NC(=O)[C@H](C)NC(=O)[C@H](C)NC(=O)[C@H](CCC(N)=O)NC(=O)CNC(=O)[C@H](CCC(=O)O)NC(=O)[C@H](CC(C)C)NC(=O)[C@H](Cc1ccc(O)cc1)NC(=O)[C@H](CO)NC(=O)[C@H](CO)NC(=O)[C@@H](NC(=O)[C@H](CC(=O)O)NC(=O)[C@H](CO)NC(=O)[C@@H](NC(=O)[C@H](Cc1ccccc1)NC(=O)[C@@H](NC(=O)CNC(=O)[C@H](CCC(=O)O)NC(=O)[C@H](C)NC(=O)[C@@H](N)Cc1c[nH]cn1)[C@@H](C)O)[C@@H](C)O)C(C)C)C(=O)N[C@@H](C)C(=O)N[C@@H](Cc1c[nH]c2ccccc12)C(=O)N[C@@H](CC(C)C)C(=O)N[C@H](C(=O)N[C@@H](CCCNC(=N)N)C(=O)NCC(=O)N[C@@H](CCCNC(=N)N)C(=O)NCC(=O)O)C(C)C
C57BL/6 mouse	blood	intravenous	0.5 mg/kg	–	1.08 L/kg	Cn1ccc(-c2cc(Cl)c(Cl)c3[nH]c4c(c23)CN(C(=O)CO)CC4)n1
mouse	plasma	intravenous	10 mg/kg	–	4.44 L/kg	CC(C)NC(=O)NC1CC=C(c2cc3c(Nc4cc5ncsc5cc4F)ncnc3s2)CC1 (racemic)
female CD-1 mouse	plasma	intravenous	5 mg/kg	–	0.5 L/kg	COC1C=COC2(C)Oc3c(C)c(O)c4c(c3C2=O)C2=NC3(CCN(CC(C)C)CC3)NC2=C(NC(=O)C(C)=CC=CC(C)C(O)C(C)C(O)C(C)C(OC(=O)Nc2cccnn2)C1C)C4=O (stereo not drawn)
male BALB/c mouse	plasma	intravenous	5 mg/kg	–	2.76 L/kg	N#CCCC1CCN(C(=S)c2ccc(-c3cc(Cl)ccc3Cl)o2)CC1
CD-1 mouse	plasma	oral	30 mg/kg	–	65.5 L/kg	O=C1CCC(N2C(=O)c3ccc(N4CCC(C(=O)N5CCC(CCN6CCC(CNC(=O)c7cccc(-c8noc(C(F)(F)F)n8)c7)(c7nc(-c8ccccc8)cs7)CC6)CC5)CC4)cc3C2=O)C(=O)N1 (stereo not drawn)
male C57BL/6 mouse	plasma	intravenous	2 mg/kg	–	4.6 L/kg	CCC1(CC)CC(=O)N(C2c3cc(C(=O)NC4c5ccccc5CC4O)ccc3OC2(C)COC)C(=N)N1 (stereo not drawn)
CD-1 mouse	plasma	intravenous	1 mg/kg	–	1.84 L/kg	O=C(NCCCCc1ccccc1)n1c(=O)oc2cc(-c3ccc(F)cc3)ccc21
male CD-1 mouse	plasma	intraperitoneal	25 mg/kg	single dose	5.8 L/kg	Fc1cccc(-n2cc(-c3ccccc3)nc2NCc2ccc(C(F)(F)F)c(F)c2)c1
C57BL/6 mouse	plasma	intraperitoneal	10 mg/kg	single dose	2.88 L/kg	Cc1cc(NCC(=O)C(C)C)c2nc(N3CCOC[C@H]3C)cc(=O)n2c1
mouse	plasma	intravenous	10 mg/kg	–	1.78 L/kg	CC(=O)N1CCC=C(c2cc3c(Nc4cc5ncsc5cc4F)ncnc3s2)C1
male C57BL/6 mouse	plasma	intravenous	5 mg/kg	–	2.4 L/kg	C/C(N)=N/C(=N\S(=O)(=O)c1ccc(C(F)(F)F)cc1)N1C[C@H](c2ccccc2)C(c2ccc(Cl)cc2)=N1
male BALB/c mouse	plasma	intravenous	1 mg/kg	single dose	3.14 L/kg	Cn1c2cc([S+](C)[O-])sc2c2cnn(Cc3cccc(N)c3)c(=O)c21 (stereo not drawn)
mouse	plasma	intravenous	0.1 mg/kg	–	2.87 L/kg	Cc1cc(C(=O)N[C@@H](CC(=O)NC(C)(C)C)C(=O)NCCNC(=O)c2cccc(-n3cccn3)c2)no1

A few entries again:
species	medium	route	dose	notes	Vd	SMILES
C57BL/6 mouse	plasma	intraperitoneal	10 mg/kg	single dose	3.84 L/kg	Cc1cc(NCC(=O)C(C)(C)C)c2nc(N3CCOC[C@H]3C)cc(=O)n2c1
mouse	plasma	intraperitoneal	100 mg/kg	–	959 mL	COc1cc(OCCN2CCOCC2)cnc1-c1nc2cc(OC(F)(F)F)ccc2[nH]1
